# Results from different studies.
# Each numbered part is a random draw from the data of one study; scales do not carry over between parts.
# Chain of UniProt P61075 (whole entry, looked up): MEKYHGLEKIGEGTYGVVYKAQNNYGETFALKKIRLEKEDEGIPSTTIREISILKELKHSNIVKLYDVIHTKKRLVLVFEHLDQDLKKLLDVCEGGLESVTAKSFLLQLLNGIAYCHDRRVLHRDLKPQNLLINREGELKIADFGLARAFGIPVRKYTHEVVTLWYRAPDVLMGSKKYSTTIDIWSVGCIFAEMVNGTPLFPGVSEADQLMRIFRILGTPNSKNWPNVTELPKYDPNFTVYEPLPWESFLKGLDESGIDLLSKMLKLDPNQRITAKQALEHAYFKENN
# Chain of UniProt P62344 (whole entry, looked up): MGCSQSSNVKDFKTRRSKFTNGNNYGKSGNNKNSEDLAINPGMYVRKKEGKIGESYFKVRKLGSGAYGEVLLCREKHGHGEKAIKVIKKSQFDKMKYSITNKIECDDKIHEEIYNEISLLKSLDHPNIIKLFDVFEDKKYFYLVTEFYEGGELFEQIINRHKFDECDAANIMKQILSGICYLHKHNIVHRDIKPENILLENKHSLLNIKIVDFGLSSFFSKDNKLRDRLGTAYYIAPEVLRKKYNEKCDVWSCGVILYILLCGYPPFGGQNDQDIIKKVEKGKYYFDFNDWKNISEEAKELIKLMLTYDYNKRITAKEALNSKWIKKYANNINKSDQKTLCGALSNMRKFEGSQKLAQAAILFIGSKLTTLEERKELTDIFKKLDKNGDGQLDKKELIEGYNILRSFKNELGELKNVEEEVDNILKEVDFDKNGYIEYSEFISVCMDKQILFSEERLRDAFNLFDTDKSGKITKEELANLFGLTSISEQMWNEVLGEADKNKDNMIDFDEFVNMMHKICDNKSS

# Set 1 — species: human; matrix: microsomes or S9; tested at: 2 µM; time: 0.5 h
Compound,remaining compound [%]
COc1cc(=O)n(-c2ccc(C#N)c(Cl)c2C)nc1C,74.6
CC(C)(CO)CCCNC(=O)N1CCC2(CC1)OCCO2,> 99
Cc1ccc(C2NCc3ccccc3-n3cccc32)c(C)c1 (stereo not drawn),34

# Set 2 — observed: enzyme activity; mode: inhibitor; tested at: 10 µM
# Target: Calcium/calmodulin-dependent protein kinase type II subunit alpha (CAMK2A, Homo sapiens, UniProt Q9UQM7)
# Chain of UniProt Q9UQM7 (whole entry, looked up): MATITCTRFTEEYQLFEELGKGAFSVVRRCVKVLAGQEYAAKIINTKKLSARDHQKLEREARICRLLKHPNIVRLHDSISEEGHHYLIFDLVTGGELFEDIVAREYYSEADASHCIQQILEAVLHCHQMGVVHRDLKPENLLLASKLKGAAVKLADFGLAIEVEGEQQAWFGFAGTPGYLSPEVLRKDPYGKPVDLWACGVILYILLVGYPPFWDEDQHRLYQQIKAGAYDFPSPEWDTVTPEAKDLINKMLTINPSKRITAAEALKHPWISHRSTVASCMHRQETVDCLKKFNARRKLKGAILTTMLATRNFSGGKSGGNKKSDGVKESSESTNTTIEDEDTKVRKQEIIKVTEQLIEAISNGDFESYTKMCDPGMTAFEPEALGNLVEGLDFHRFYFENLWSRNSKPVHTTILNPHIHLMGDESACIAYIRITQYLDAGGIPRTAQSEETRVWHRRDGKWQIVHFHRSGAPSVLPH
SMILES,inhibition [%]
C=CCCN1C[C@@H]2C[C@H](C1)c1cccc(=O)n1C2,-20
COCc1c(CO)cnc(C)c1O,-5
CCCCOC(=O)c1ccccc1C(=O)OCC(C)C,6
CC(C)[C@]12CC(=O)[C@H](C)[C@H]1C2,-7

# Set 3 — observed: enzyme activity; mode: inhibitor; technique: radiometric; tested at: 0.5 µM
# Target: Dual specificity tyrosine-phosphorylation-regulated kinase 1B (DYRK1B, Homo sapiens, UniProt Q9Y463)
Compound,remaining activity
COc1cc2c(cc1OC)-c1[nH]nc(Nc3cccc(F)c3)c1C2,102%
CCN(CC)CCNC(=O)c1c(C)[nH]c(/C=C2\C(=O)Nc3ccc(F)cc32)c1C,60%
COc1cc2ncnc(Nc3cccc(Cl)c3)c2cc1OC,104%
Cc1cc2ncc(-c3ccccc3)nc2cc1C,106%
O=c1[nH]c2ccccc2n1C1CCN(Cc2ccc(-c3[nH]c4cc5ncnc5cc4nc3-c3ccccc3)cc2)CC1,97.9%
CN([C@@H](Cc1ccc(OS(=O)(=O)c2cccc3cnccc23)cc1)C(=O)N1CCN(c2ccccc2)CC1)S(=O)(=O)c1cccc2cnccc12,101%
O=C1C(Cl)=C(N2C(=O)CCC2=O)C(=O)c2ccccc21,103%
Cc1cn(-c2cc(NC(=O)c3ccc(C)c(Nc4nccc(-c5cccnc5)n4)c3)cc(C(F)(F)F)c2)cn1,92.8%
Cc1nc2cc3nc(-c4cccs4)cnc3cc2n1C,102%
Nc1cccc(-c2cc3c(Oc4cccc(O)c4)ncnc3[nH]2)c1,100%
O=C(NC(NC(=S)Nc1ccc(F)c([N+](=O)[O-])c1)C(Cl)(Cl)Cl)C(c1ccccc1)c1ccccc1 (stereo not drawn),103%
CCOc1nc(NC(=O)Cc2cc(OC)ccc2OC)cc(N)c1C#N,99.2%
COC[C@H]1OC(=O)c2coc3c2[C@@]1(C)C1=C(C3=O)[C@@H]2CCC(=O)[C@@]2(C)C[C@H]1OC(C)=O,100%
O=C1c2ccccc2-[n+]2ccc3c([nH]c4ccccc43)c21,98.7%
Cn1nc2c3c(cccc31)C(=O)c1ccccc1-2,93.1%

# Set 4 — organism: Sarcocystis neurona; observed: parasite growth; tested at: 10 µM; time: 96 h; notes: secondary screen
SMILES,inhibition [%]
C[C@H]1CCC[C@H](O)CCCCCc2cc(O)cc(O)c2C(=O)O1,-42.7
NC(=O)OCCCc1ccccc1,-8.6
c1ccc(Cn2ccnc2)cc1,-18.9

# Other studies, line by line
# pknB: Serine/threonine-protein kinase PknB (pknB, Mycobacterium tuberculosis, UniProt P9WI81)
# Chain of UniProt P9WI81 (whole entry, looked up): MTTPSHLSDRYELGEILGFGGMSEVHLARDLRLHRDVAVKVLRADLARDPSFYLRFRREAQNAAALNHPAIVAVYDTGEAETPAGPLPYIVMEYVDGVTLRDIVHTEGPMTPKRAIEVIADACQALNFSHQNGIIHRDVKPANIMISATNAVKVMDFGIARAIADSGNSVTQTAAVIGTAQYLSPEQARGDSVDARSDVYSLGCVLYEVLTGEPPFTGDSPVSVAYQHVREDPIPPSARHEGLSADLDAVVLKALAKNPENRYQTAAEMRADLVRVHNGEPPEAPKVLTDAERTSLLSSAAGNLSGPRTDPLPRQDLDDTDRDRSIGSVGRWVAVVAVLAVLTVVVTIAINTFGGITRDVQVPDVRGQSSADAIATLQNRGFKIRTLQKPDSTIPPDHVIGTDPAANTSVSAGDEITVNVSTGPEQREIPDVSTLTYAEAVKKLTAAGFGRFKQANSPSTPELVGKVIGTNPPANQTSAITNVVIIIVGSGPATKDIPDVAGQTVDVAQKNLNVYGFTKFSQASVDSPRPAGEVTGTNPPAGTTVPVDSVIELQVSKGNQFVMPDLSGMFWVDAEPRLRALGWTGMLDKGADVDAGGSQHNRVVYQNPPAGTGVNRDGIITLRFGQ
Structure (SMILES),target or system,test,system,setting,measurement,value
CN(c1ccnc(CNc2nc(Nc3ccc4c(c3)CC(=O)N4)ncc2C(F)(F)F)n1)S(C)(=O)=O,pknB,"cell-free assay, competition with immobilised ligand",,1 µM,remaining binding,80%
COc1ccc(-c2c(Nc3ccccn3)[nH]c3c(C4=CCCCC4)c(-c4ccccc4)nn3c2=O)cc1,,,patients with advanced malignancies,"oral, dose not given, treatment-emergent adverse events",blood bilirubin increased incidence,22.5%
O=C(N[C@H]1CCCCC/C=C\C2C[C@@]2(C(=O)O)NC(=O)[C@@H]2C[C@@H](Oc3ccncc3)CN2C1=O)OC1CCCC1 (stereo partly drawn),pknB,"cell-free assay, competition with immobilised ligand",,1 µM,remaining binding,93%
CCOCCn1cc(C(=O)Nc2ccc(-n3nc(-c4cccnc4)cc3C(F)(F)F)cn2)ccc1=O,"CRK2 (Plasmodium falciparum, UniProt P61075)","cell-free assay, competition with immobilised ligand",,1 µM,remaining binding,86%
O=C(Nc1ccc(Oc2ccc(F)cc2)cc1)N1CCc2ncccc2[C@H]1c1ccc(F)cc1,"CDPK1 (Plasmodium falciparum, UniProt P62344)","cell-free assay, competition with immobilised ligand",,1 µM,remaining binding,96%
